# Results of several laboratories.
# Protocols differ between the studies behind these lines. Numbers after ± are the reported error.
Compound,test,test system,setting,how to read,quantity,value
COc1ccc(C)cc1NC(=O)OC1CC2CCCC(C1)N2Cc1ccc(CC[18F])cc1 (stereo not drawn),,"BALB/c mice, EMT6 tumour",1 h,baseline: tumour over fat,tumour to tissue ratio,0.41
CC[C@@]1(O)C(=O)OCc2c1cc1n(c2=O)Cc2c-1nc1cc(F)c(C)c3c1c2[C@@H](NC(=O)CO)CC3,,PAMPA,"5 µM, 4 h, pH 5",,Papp,13 ×10⁻⁶ cm/s
NC(=S)N/N=C/c1ccc(OCc2cccc(F)c2)cc1,,PAMPA-BBB,pH 7.4,,Papp,4.08 ×10⁻⁶ cm/s
COC(=O)C[C@H](NC(=O)[C@H](C)NC(=O)[C@@H](NC(=O)[C@H](CC(=O)OC)NC(=O)[C@@H](NC(=O)c1ccc2ccccc2n1)C(C)C)C(C)C)C(=O)COc1c(F)cccc1F,echography,rat pups,"1 mg/kg, 1 h",,fractional shortening,50 ± 2.11%
CC(=O)OC1O[C@@H]2O[C@@]3(C)CC[C@H]4[C@H](C)CCC([C@H]1C)[C@@]24OO3 (stereo partly drawn),,Tg(fli1:EGFP) zebrafish embryos,"25 µg/mL, up to 48 hpf",,dead embryos,0 count
CN[C@](C)(C[18F])C(=O)O,,"SCID mouse U87 xenograft, brain","60 min, post injection",,tissue uptake,0.3 ± 0.1 %ID/g
CC(C)C[C@@H](NC(=O)[C@@H](CCCCN)NC(=O)CNC(=O)CNC(=O)[C@@H]1CSSC[C@H](N)C(=O)NCC(=O)N[C@@H](CCCNC(=N)N)C(=O)N[C@@H](CCCNC(=N)N)C(=O)N[C@@H](C)C(=O)NCC(=O)NCC(=O)N[C@@H](CO)C(=O)N1)C(=O)N[C@H](C)C(=O)N[C@H](CCCCN)C(=O)N[C@H](CC(C)C)C(=O)N[C@H](C)C(=O)N[C@H](CCCCN)C(=O)N[C@H](CCCCN)C(=O)N[C@H](CC(C)C)C(=O)N[C@H](C)C(=O)N[C@H](CCCCN)C(=O)N[C@H](CC(C)C)C(=O)N[C@H](C)C(=O)N[C@H](CCCCN)C(=O)O,,"cynomolgus monkey, plasma","intravenous, 3 mg/kg, infusion",,clearance,37.7 mL/min
CCN(Cc1ccccc1)C(=O)CCc1nc(CN2CCN(C(=O)Cc3ccc(OC)c(OC)c3)CC2)no1,LC-MS,"rat, dorsal root ganglion","intravenous, 1 mg/kg, 1.0 h",,concentration,84 ± 0.6 ng/g
COc1cc(NC(=O)C(=O)c2c(C)n(Cc3ccc(Cl)cc3)c3ccc(C)cc23)ccn1,,"cynomolgus monkey, plasma","intravenous, 1 mg/kg",,C0,2370 ng/mL
CN(C)C(CNC(=O)Nc1cc(C(F)(F)F)ccc1N1CCOCC1)c1ccncc1 (stereo not drawn),,"mouse, serum","intraperitoneal, 120 mg/kg single dose",,serum osmolarity,314 mmol/L
CNC(=O)C1CCN(c2ccccc2NC(=O)c2ccc(-c3cc(O)ccc3C)c(C)n2)CC1,metabolic stability,"mouse, liver microsomes",2 µM,,microsomal CLint,156 µL/min/mg
O=c1cc(-c2ccccc2)oc2c(Br)c(O)c(O)c(O)c12,,"C57BL/6 mouse, plasma","oral, 150 mg/kg, single dose",,MRT(0-t),7.8 h
Cc1ccc(/C=C/C(=O)O)cc1-c1cc2c(cc1C)C(C)(C)CCC2(C)C,,"Sprague-Dawley rat, male, plasma","oral, 100 mg/kg, 12 h, sesame oil vehicle",,HDL level,39 ± 5 mg/dL
CC[C@@H](C)[C@@H](NC(=O)[C@@H](CCCCN)NC(=O)[C@H](NC(=O)[C@@H](Cc1c[nH]c2ccccc12)NC(=O)[C@@H](Cc1ccccc1)NC(=O)[C@@H](CCC(N)=O)NC(=O)[C@@H](CC(N)=O)NC(=O)[C@@H](CCCNC(=N)N)NC(=O)[C@@H](CCCNC(=N)N)NC(=O)[C@@H](CCSC)NC(=O)[C@@H](CCCCN)NC(=O)[C@@H](Cc1c[nH]c2ccccc12)NC(=O)[C@@H](CCCCN)NC(=O)[C@@H](CCCCN)NC(=O)CNC(=O)[C@@H](CCCCN)NC(=O)CNC(=O)[C@@H](CCC(N)=O)NC(=O)[C@@H](Cc1c[nH]cn1)NC(=O)[C@H](N)CCCNC(=N)N)[C@H](C)CC)C(=O)N[C@H](CCC(N)=O)C(=O)N[C@H](CCCNC(=N)N)C(=O)O,,PAMPA,"2 mg/mL, 5 h, pH 7.4",,Papp,1.88 ×10⁻⁶ cm/s
CCCC[C@H]1C(=O)N(C)[C@@H](CCCC)C(=O)N[C@@H](CCCNC(=O)CN2CCN(CC(=O)O)CCN(CC(=O)O)CCN(CC(=O)O)CC2)C(=O)N[C@H](C(=O)NCC(N)=O)CSCC(=O)N[C@@H](Cc2ccc(O)cc2)C(=O)N(C)[C@@H](C)C(=O)N[C@@H](CC(N)=O)C(=O)N2CCC[C@H]2C(=O)N[C@@H](Cc2c[nH]cn2)C(=O)N[C@@H](CC(C)C)C(=O)N(C)CC(=O)N[C@@H](Cc2c[nH]c3ccccc23)C(=O)N[C@@H](CO)C(=O)N[C@@H](Cc2c[nH]c3ccccc23)C(=O)N1C [gallium-68 labelled],static PET,"NOD/SCID mice, CHO-hPD-L1 xenograft, CHO-hPD-L1 tumour","intravenous, 1 h post injection, before atezolizumab treatment",,tumour uptake,5.33 ± 0.25 %ID/g
CC[C@H](C)C(=O)N1CCC(NC(=O)Nc2ccc(OC(F)(F)F)c(F)c2)CC1,,"healthy volunteers, both sexes","oral, 8 mg single dose, fasted state",,participants with any Serious TEAE,0%
O=P1(NCCCl)NCCCO1 (stereo not drawn),,"rat, plasma","intravenous, 10 mg/kg CP, together with: ketoconazole 10 mg/kg oral 50 min before",,MRT(0-t),4.9 ± 0.498 h
CC[C@H](C)[C@H](NC(=O)[C@H](Cc1ccccc1)NC(=O)[C@H](CC(=O)O)NC(=O)[C@H](CN)NC(=O)[C@H](Cc1ccccc1)NC(=O)[C@H](Cc1ccccc1)NC(=O)[C@H](CCCCN)NC(=O)[C@H](CN)NC(=O)[C@H](CC(C)C)NC(=O)[C@H](CCCNC(=N)N)NC(=O)[C@H](CCSC)NC(=O)[C@H](C)N)C(=O)N[C@@H](CC(C)C)C(=O)N[C@@H](CCC(N)=O)C(=O)N[C@@H](CCCNC(=N)N)C(=O)N[C@@H](CCCCN)C(=O)N[C@@H](CCCCN)C(=O)O,circular dichroism,20% TFE in PBS,"200 µM, pH 7.4, 25 °C",,helicity,14.7%
O=C(O)CC[C@H](NC(=O)O[C@@H](CCCCNC(=O)c1ccc([18F])cc1)C(=O)O)C(=O)O,,"mouse, PC-3 PIP/flu xenografts, lung",60 min,,tissue uptake,0.85 ± 0.55 %ID/g
"O=C(c1ccc(F)cc1)C1CCN(C2Cc3c(cccc3OCC[18F])CC2O)CC1 (single isomer, unassigned; (-))",,"Sprague-Dawley rat, male, spleen","intravenous, dose not given, 120 min",,tissue uptake,0.376 ± 0.034 %ID/g
CC(C)[C@H](NC(=O)CNC(=O)[C@H](CCC(N)=O)NC(=O)[C@H](C)N)C(=O)O,,healthy human,"intravenous, 10 mg/kg single dose",baseline: subjects,subjects with adverse events,33.3%

# Some of these lines once more:
Compound,test,test system,setting,how to read,quantity,value
CC(=O)OC1O[C@@H]2O[C@@]3(C)CC[C@H]4[C@H](C)CCC([C@H]1C)[C@@]24OO3 (stereo partly drawn),,Tg(fli1:EGFP) zebrafish embryos,"25 µg/mL, up to 48 hpf",,dead embryos,0 count
